Experimental data of several laboratories.
“And” joins repeats or separate records; there may be more than shown.
B1: PAGE4 A18C (Homo sapiens, UniProt O60829); Alexa 555/647 on C18, C63; sequence looked up; chain MSARVRSRSRGRGDGQECPDVVAFVAPGESQQEEPPTDNQDIEPGQEREGTPPIEERKVEGDCQEMDLEKTRSERGDGSDVKEKTPPNPKHAKTKEAGDGQP
B2: UBTF 491-746 (Homo sapiens, UniProt P17480); sequence looked up; chain IWQQSVIGDYLARFKNDRVKALKAMEMTWNNMEKKEKLMWIKKAAEDQKRYERELSEMRAPPAATNSSKKMKFQGEPKKPPMNGYQKFSQELLSNGELNHLPLKERMVEIGSRWQRISQSQKEHYKKLAEEQQKQYKVHLDLWVKSLSPQDRAAYKEYISNKRKSMTKLRGPNPKSSRTTLQSKSESEEDDEEDEDDEDEDEEEEDDENGDSSEDGGDSSESSSEDESEDGDENEEDDEDEDDDEDDDEDEDNESE
B3: UGT1A9 (Homo sapiens, UniProt O60656); chain GKLLVVPMDGSHWFTMRSVVEKLILRGHEVVVVMPEVSWQLGRSLNCTVKTYSTSYTLEDLDREFKAFAHAQWKAQVRSIYSLLMGSYNDIFDLFFSNCRSLFKDKKLVEYLKESSFDAVFLDPFDNCGLIVAKYFSLPSVVFARGILCHYLEEGAQCPAPLSYVPRILLGFSDAMTFKERVRNHIMHLEEHLLCHRFFKNALEIASEILQTPVTEYDLYSHTSIWLLRTDFVLDYPKPVMPNMIFIGGINCHQGKPLPMEFEAYINASGEHGIVVFSLGSMVSEIPEKKAMAIADALGKIPQTVLWRYTGTRPSNLANNTILVKWLPQNDLLGHPMTRAFITHAGSHGVYESICNGVPMVMMPLFGDQMDNAKRMETKGAGVTLNVLEMTSEDLENALKAVINDKSYKENIMRLSSLHKDRPVEPLDLAVFWVEFVMRHKGAPHLRPAAHDLTWYQYHSLDVIGFLLAVVLTVAFITFKCCAYGYRKCLGKKGRVKKAHKSKTH
B4: CCS1 1-74 (Saccharomyces cerevisiae, UniProt P40202); sequence looked up; chain MTTNDTYEATYAIPMHCENCVNDIKACLKNVPGINSLNFDIEQQIMSVESSVAPSTIINTLRNCGKDAIIRGAG
B5: MYBPC3 C0 domain 1-95 G5R (Homo sapiens, UniProt Q14896); sequence looked up; chain MPEPRKKPVSAFSKKPRSVEVAAGSPAVFEAETERAGVKVRWQRGGSDISASNKYGLATEGTRHTLTVREVGPADQGSYAVIAGSSKVKFDLKVI
B6: VPS5/VPS17 SNX-BAR complex (Saccharomyces cerevisiae); chain 1 MDYEDNLEAPVWDELNHEGDKTQSLVSNSIESIGQISTNEERKDNELLETTASFADKIDLDSAPEWKDPGLSVAGNPQLEEHDNSKADDLINSLAPEQDPIADLKNSTTQFIATRESGGALFTGNANSPLVFDDTIYDANTSPNTSKSISGRRSGKPRILFDSARAQRNSKRNHSLKAKRTTASDDTIKTPFTDPLKKAEKENEFVEEPLDDRNERRENNEGKFTASVEKNILEQVDRPLYNLPQTGANISSPAEVEENSEKFGKTKIGSKVPPTEKAVAFKVEVKDPVKVGELTSIHVEYTVISESSLLELKYAQVSRRYRDFRWLYRQLQNNHWGKVIPPPPEKQSVGSFKENFIENRRFQMESMLKKICQDPVLQKDKDFLLFLTSDDFSSESKKRAFLTGSGAINDSNDLSEVRISEIQLLGAEDAAEVLKNGGIDAESHKGFMSISFSSLPKYNEADEFFIEKKQKIDELEDNLKKLSKSLEMVDTSRNTLAASTEEFSSMVETLASLNVSEPNSELLNNFADVHKSIKSSLERSSLQETLTMGVMLDDYIRSLASVKAIFNQRSKLGYFLVVIENDMNKKHSQLGKLGQNIHSEKFREMRKEFQTLERRYNLTKKQWQAVGDKIKDEFQGFSTDKIREFRNGMEISLEAAIESQKECIELWETFYQTNL; chain 2 MTSAVPYDPYDDLDNNPFAEPQEEDSEPAATTTDGSSSMSEERVGTEQTAASVQDNGTANNIQNGLGEEGNATRSKTSNEHNENQQPSQPSERVILPERSDEKKKYTLLAKVTGLERFGSATGKKENPTIIFDCSTNLPTFRKQQYKNVKKSYEEFHQLFKYLNVAIQESFVPTLPSAYTTFGINSEEDRMKVTRNFQLWFNRLSQDPLIIRNEEVAFFIESDFNTYTPINKSKSLASGLKRKTLKQLAPPYDEITELAEFRPLVKSIYVVSQSLQEKLLRVSRNRKMMVQEENAFGQDFVNLDEHNKLYRRYGKILTAVGDIDSIIATMDMATLYDGLEWIVRDAYAVKEALTNRHFIMRNLVQAQQNSKAKQEQARRFRSRRDINPMKIDEALRQLKAAAKNEQVLTLKLQRITSNMIIERKQWISWYEEWIRSSIKEFTLRKIEYERKKLTLLERVRSDIRKADENGGLSRLGRHAVSNNNSDTSQTLKGDSWTGESNRKSQIPINKIAHTEFDDELFTEDDGYNSQDSDTTSLNARHAASLLGMSTK
B7: ARF1 GTP-bound (Saccharomyces cerevisiae, UniProt P11076); myristoylated; sequence looked up; chain MGLFASKLFSNLFGNKEMRILMVGLDGAGKTTVLYKLKLGEVITTIPTIGFNVETVQYKNISFTVWDVGGQDRIRSLWRHYYRNTEGVIFVVDSNDRSRIGEAREVMQRMLNEDELRNAAWLVFANKQDLPEAMSAAEITEKLGLHSIRNRPWFIQATCATSGEGLYEGLEWLSNSLKNST
B8: gp20 N291A/M292A (bacteriophage T4, UniProt P13334); sequence looked up; chain MKFNVLSLFAPWAKMDERNFKDQEKEDLVSITAPKLDDGAREFEVSSNEAASPYNAAFQTIFGSYEPGMKTTRELIDTYRNLMNNYEVDNAVSEIVSDAIVYEDDTEVVALNLDKSKFSPKIKNMMLDEFSDVLNHLSFQRKGSDHFRRWYVDSRIFFHKIIDPKRPKEGIKELRRLDPRQVQYVREIITETEAGTKIVKGYKEYFIYDTAHESYACDGRMYEAGTKIKIPKAAVVYAHSGLVDCCGKNIIGYLHRAVKPANQLKLLEDAVVIYRITRAPDRRVWYVDTGAAPARKAAEHMQHVMNTMKNRVVYDASTGKIKNQQHNMSMTEDYWLQRRDGKAVTEVDTLPGADNTGNMEDIRWFRQALYMALRVPLSRIPQDQQGGVMFDSGTSITRDELTFAKFIRELQHKFEEVFLDPLKTNLLLKGIITEDEWNDEINNIKIEFHRDSYFAELKEAEILERRINMLTMAEPFIGKYISHRTAMKDILQMTDEEIEQEAKQIEEESKEARFQDPDQEQEDF
B9: LRP1 932-1013 (Homo sapiens, UniProt Q07954); chain SARTCPPNQFSCASGRCIPISWTCDLDDDCGDRSDESASCAYPTCFPLTQFTCNNGRCININWRCDNDNDCGDNSDEAGCSH
B10: FKH1 (Saccharomyces cerevisiae, UniProt P40466); sequence looked up; chain MSVTSREQKFSGKYSSYTAQDRQGLVNAVTCVLSSSSDPVAVSSDYSNSLSIAREVNAYAKIAGCDWTYYVQKLEVTIGRNTDSLNLNAVPGTVVKKNIDIDLGPAKIVSRKHAAIRFNLESGSWELQIFGRNGAKVNFRRIPTGPDSPPTVLQSGCIIDIGGVQMIFILPEQETIISDYCLNHLMPKLLSTYGTNGNNNPLLRNIIEGSTYLREQRLQEEARLQQLDHLHTPLSSSSDVNPIGDPHGDTIMMEEDEEDENYTRGGIRPNTYTSSSNNAVTNGNVPHIENPSDLSLDENRYIKPPQSYASMITQAILSTPEGSISLADIYKFISDNYAFYRFSQMAWQNSVRHNLSLNKAFEKVPKRAGQQGKGMNWKISDEVRRDFLNKWNAGKLSKIRRGASVTRQLQLHMSKFGEIPAPESSSIDPRGIKAQKVKKSLQATSSILGESAPQLQRTQLTGQISTTTSMDVTTNANVNNSSLS
B11: UBTF 670-746 (Homo sapiens, UniProt P17480); sequence looked up; chain TLQSKSESEEDDEEDEDDEDEDEEEEDDENGDSSEDGGDSSESSSEDESEDGDENEEDDEDEDDDEDDDEDEDNESE
Sequence of UniProt P32325 (whole entry, looked up): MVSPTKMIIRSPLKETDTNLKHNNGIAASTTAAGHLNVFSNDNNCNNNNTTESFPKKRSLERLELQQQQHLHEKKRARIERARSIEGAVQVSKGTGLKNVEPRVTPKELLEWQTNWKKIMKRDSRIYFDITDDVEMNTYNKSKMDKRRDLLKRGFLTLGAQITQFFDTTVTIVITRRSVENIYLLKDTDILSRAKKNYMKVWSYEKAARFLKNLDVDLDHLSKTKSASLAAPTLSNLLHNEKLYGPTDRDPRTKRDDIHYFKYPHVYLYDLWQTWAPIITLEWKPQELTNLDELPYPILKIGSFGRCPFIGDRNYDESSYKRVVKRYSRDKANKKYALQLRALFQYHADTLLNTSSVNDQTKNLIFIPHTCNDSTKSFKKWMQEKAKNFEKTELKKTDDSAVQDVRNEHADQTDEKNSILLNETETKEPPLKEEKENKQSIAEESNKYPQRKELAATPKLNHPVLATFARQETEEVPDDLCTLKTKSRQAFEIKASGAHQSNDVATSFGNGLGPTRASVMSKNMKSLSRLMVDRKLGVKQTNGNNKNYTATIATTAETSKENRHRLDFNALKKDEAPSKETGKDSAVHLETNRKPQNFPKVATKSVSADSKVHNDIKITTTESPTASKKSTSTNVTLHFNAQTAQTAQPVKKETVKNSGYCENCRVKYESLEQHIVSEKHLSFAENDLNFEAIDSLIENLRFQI
Sequence of UniProt P37383 (whole entry, looked up): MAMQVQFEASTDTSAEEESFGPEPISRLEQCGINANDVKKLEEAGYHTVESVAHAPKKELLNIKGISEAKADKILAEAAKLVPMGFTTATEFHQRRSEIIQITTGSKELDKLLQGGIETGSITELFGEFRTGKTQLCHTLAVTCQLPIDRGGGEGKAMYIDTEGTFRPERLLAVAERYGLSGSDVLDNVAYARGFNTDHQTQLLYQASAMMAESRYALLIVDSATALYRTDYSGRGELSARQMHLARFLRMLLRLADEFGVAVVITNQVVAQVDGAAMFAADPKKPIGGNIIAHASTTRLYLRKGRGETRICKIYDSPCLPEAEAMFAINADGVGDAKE
Sequence of UniProt O14965 (whole entry, looked up): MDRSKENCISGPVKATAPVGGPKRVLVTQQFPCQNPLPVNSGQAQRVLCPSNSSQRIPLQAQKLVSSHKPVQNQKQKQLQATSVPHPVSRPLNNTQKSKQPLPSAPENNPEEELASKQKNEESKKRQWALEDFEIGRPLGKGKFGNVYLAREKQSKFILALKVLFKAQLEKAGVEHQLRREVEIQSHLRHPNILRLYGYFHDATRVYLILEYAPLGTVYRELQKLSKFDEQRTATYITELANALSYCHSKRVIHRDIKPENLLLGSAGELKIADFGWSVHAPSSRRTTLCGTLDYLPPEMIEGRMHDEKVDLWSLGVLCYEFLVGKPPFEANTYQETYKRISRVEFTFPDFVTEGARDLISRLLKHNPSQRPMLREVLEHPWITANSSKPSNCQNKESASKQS
Sequence of UniProt P30533 (whole entry, looked up): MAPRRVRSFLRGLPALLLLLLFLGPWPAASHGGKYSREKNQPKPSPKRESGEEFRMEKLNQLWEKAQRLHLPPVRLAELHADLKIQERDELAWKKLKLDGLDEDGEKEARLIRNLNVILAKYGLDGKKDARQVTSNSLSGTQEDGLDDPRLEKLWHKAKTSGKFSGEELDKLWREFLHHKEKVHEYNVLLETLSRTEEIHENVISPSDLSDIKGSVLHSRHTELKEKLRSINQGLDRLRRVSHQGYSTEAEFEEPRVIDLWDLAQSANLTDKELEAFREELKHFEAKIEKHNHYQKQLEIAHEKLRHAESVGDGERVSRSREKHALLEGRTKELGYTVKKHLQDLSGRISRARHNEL
Sequence of UniProt P36046 (whole entry, looked up): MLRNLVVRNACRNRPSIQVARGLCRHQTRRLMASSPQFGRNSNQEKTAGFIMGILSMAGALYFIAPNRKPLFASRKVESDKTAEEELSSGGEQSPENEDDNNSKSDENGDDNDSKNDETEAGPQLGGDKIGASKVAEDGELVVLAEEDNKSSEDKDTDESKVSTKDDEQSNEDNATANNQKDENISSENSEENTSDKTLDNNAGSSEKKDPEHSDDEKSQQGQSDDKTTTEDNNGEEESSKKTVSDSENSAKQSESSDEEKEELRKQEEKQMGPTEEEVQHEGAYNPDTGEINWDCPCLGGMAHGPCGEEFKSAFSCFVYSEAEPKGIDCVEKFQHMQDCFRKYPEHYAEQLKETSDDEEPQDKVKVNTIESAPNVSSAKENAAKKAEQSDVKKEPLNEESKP
Sequence of UniProt Q68Y81 (whole entry, unmodified, looked up): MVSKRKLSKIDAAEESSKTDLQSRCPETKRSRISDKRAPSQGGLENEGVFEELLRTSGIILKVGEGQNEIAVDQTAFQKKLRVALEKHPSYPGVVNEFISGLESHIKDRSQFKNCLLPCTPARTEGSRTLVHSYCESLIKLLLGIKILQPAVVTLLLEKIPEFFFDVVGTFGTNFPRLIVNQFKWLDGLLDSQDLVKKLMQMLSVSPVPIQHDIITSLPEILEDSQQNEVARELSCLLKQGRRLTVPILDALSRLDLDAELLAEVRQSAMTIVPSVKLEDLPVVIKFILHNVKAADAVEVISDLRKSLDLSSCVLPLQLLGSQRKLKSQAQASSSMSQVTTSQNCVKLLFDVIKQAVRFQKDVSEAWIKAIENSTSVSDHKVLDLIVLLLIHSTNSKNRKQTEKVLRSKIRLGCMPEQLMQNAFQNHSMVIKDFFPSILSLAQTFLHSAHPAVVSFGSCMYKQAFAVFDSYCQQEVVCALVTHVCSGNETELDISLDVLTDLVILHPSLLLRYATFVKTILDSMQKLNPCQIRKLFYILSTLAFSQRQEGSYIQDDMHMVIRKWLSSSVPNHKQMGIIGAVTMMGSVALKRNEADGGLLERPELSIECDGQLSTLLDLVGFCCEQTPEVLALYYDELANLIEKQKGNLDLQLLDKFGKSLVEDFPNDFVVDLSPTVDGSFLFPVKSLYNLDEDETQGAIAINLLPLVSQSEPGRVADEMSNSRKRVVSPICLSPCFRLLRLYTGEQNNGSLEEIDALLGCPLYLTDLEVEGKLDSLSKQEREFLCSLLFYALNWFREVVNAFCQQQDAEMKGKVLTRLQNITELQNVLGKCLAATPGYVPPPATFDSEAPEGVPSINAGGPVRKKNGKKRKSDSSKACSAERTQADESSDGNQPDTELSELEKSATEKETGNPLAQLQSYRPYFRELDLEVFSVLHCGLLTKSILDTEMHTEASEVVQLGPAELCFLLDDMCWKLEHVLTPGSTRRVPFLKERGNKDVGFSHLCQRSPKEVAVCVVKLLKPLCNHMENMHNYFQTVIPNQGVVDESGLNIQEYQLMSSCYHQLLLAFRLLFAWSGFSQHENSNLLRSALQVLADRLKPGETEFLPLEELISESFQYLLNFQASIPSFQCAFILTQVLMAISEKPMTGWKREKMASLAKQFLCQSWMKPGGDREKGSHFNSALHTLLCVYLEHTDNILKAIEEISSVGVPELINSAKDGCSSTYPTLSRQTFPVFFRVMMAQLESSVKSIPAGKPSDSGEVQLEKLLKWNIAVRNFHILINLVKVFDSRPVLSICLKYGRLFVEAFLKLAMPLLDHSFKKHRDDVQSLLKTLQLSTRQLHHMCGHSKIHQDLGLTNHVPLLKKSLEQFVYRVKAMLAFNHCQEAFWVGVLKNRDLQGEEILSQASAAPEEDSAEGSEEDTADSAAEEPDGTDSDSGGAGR

Molecule | target or system | test | system | conditions | quantity | result
B1 (PAGE4 A18C) | JUN (Homo sapiens, UniProt P05412) | single-molecule FRET | – | – | binding | binds
B2 (UBTF 491-746) | TBP/TAF1A/TAF1B/TAF1C (Homo sapiens) | pull-down | not purified SL1 | with or without phosphatase | binding | binds
B3 (UGT1A9) | COc1ccc([C@@H]2CC(=O)c3c(O)cc(O)cc3O2)cc1O | steady-state kinetics | – | pH 7.4, 37 °C | Vmax | 0.00244 µmol/min/mg and 0.00419 µmol/min/mg
Ac-WKLLITIHD-{βAla-βAla-cellulose} (ITGB3 715-723 (Homo sapiens); reading uncertain; also: C-terminus attached to cellulose; N-acetyl, cellulose-bound; βAla = NCCC(=O)O; cellulose = not defined here) | Myom1 fragment (Mus musculus) | peptide array | peptide | 3 h, 22 °C | binding | binds
BACH1 BTB domain C109A, S-nitrosylation treated (Homo sapiens) (sequence not shown) | FBXL17/SKP1 FBXL17 310-701 (Homo sapiens) | BLI | – | apparent | binding | binds
B4 (CCS1 1-74) | MIA40 284-403, oxidized (UniProt P36046) | pull-down | – | 10 min, pH 7.0, 25 °C, NaCl 200 mM, nonreducing | binding | binds
MSEETKENEGFTVTAEGKGQGTLSVVTMYHAKAKDQLTCNK (C3 1299-1338, C-terminal GST fusion (Homo sapiens, UniProt P01024)) | ITGAM 145-331 (Homo sapiens, UniProt P11215) | ELISA | – | with: MgCl2 1 mM | binding | binds
B5 (MYBPC3 C0 domain 1-95 G5R) | MYH7/MYL2 MYH7 806-835 | NMR titration | – | – | binding | binds
EDFRSGSEAFDLIAQDEEEFNKEHQ (CEP192 506-530 (Homo sapiens, UniProt Q8TEP8)) | AURKA kinase domain 123-403, phosphorylated (Homo sapiens, UniProt O14965) | ITC | – | – | binding | binds
B6 (VPS5/VPS17 SNX-BAR complex) | VPS26/VPS29/VPS35 D671A/L722A/K726A/R775A (Saccharomyces cerevisiae) | fluorescence microscopy | supported membrane tubes | 3 min | binding | binds
BRD1 fragment E62A/D63A/D64A (Homo sapiens) (sequence not shown) | histone H4 (Bos taurus, UniProt P62803) | pull-down | – | – | binding | binds
B7 (ARF1 GTP-bound) | Chs5/Chs6 Chs5 1-299 K86A/H87A/K89A/R446A/K449A (Saccharomyces cerevisiae) | co-sedimentation | liposomes | with: GTP | binding | binds
B8 (gp20 N291A/M292A) | GFP/gp17 fusion (bacteriophage T4) | co-sedimentation | – | 30 min, NaCl 100 mM, bound relative to gp23 | binding | binds
BACH1 fragment C122E (Homo sapiens) (sequence not shown) | FBXL17/SKP1 FBXL17 310-701 (Homo sapiens) | pull-down | – | – | binding | binds
B9 (LRP1 932-1013) | LRPAP1 GST fusion 35-357, iodoacetamide-blocked cysteines (UniProt P30533) | pull-down | – | – | binding | binds
B10 (FKH1) | DBF4, phosphorylated (Saccharomyces cerevisiae, UniProt P32325) | pull-down | – | with and without phosphatase | binding | binds
B11 (UBTF 670-746) | TBP/TAF1A/TAF1B/TAF1C (Homo sapiens) | pull-down | not purified SL1 | with or without phosphatase | binding | binds
RAD51 (Gallus gallus, UniProt P37383) | FANCD2 K361E/K369E/R399E/K400E/K404E/R407E/K974E (Gallus gallus, UniProt Q68Y81) | pull-down | – | – | binding | binds

For quick reference, copied from above:
Molecule | target or system | test | system | conditions | quantity | result
B1 (PAGE4 A18C) | JUN (Homo sapiens, UniProt P05412) | single-molecule FRET | – | – | binding | binds
